Literature values as cited in several papers.
Each line is one published result; not all experiments were run side by side. Positions of bridges follow the written chain, without caps; N, C: chain ends. No end group written: not given here.
B1: camrelizumab; V domains shown; sequence looked up; VH EVQLVESGGGLVQPGGSLRLSCAASGFTFSSYMMSWVRQAPGKGLEWVATISGGGANTYYPDSVKGRFTISRDNAKNSLYLQMNSLRAEDTAVYYCARQLYYFDYWGQGTTVTVSS; VL DIQMTQSPSSLSASVGDRVTITCLASQTIGTWLTWYQQKPGKAPKLLIYTATSLADGVPSRFSGSGSGTDFTLTISSLQPEDFATYYCQQVYSIPWTFGGGTKVEIK
B2: CCL1; sequence looked up; chain KSMQVPFSRCCFSFAEQEIPLRAILCYRNTSSICSNEGLIFKLKRGKEACALDTVGWVQRHRKMLRHCPSKRK

Molecule	target or system	assay	system	setting	scale	quantity	result
HHLGGAKQAGDV	integrin αIIbβ3	AFM dynamic force spectroscopy	peptide	–	–	dissociation rate constant	~48 s⁻¹
Relaxin	RXFP1	item: β-arrestin 2, GFP-tagged	–	1 µM, 60 min	–	β-arrestin-2 translocation	no effect
B1 (camrelizumab)	PD-1 (human)	–	antibody, human, peripheral blood T cells	intravenous, 200-400 mg single infusion	–	receptor occupancy duration	≥ 28 days
GIP(1-30), human	GIP receptor	–	CHO	–	reference: GIP(1-42)	IC50 fold decrease	11 fold
ILRWPWRIWRR	Staphylococcus aureus	–	peptide, ATCC 33591	–	–	MIC	64 µg/mL
pegcetacoplan	–	–	human	180 mg/day for 28 days (2.6 mg/kg), arithmetic mean	–	Cmax	473 µg/mL
ifinatamab deruxtecan	–	–	patients with advanced solid tumours	dose not given, ESCC cohort	–	objective response rate	23%
B2 (CCL1)	CCR8 F290A mutant	IP accumulation, agonist	–	–	–	EC50	6 nM
fibrinogen	integrin αIIbβ3	laser trap	–	with: 50 pN force	–	bond lifetime	0.8 s
hepcidin	ferroportin	ferroportin internalization, cell-based	–	–	–	EC50	67.8 nM
MKQPSKTHKTFKYFLILFLKSVKKVAGFKKKKHYHWRRSYKESCFRKRT	Escherichia coli	–	peptide	–	–	MIC	25 µM
CHPQGPPC (disulfide 1-8 (inferred)) (disulfide)	streptavidin	–	–	–	–	dissociation rate constant	0.2 s⁻¹

Some of these lines once more:
Molecule	target or system	assay	system	setting	scale	quantity	result
fibrinogen	integrin αIIbβ3	laser trap	–	with: 50 pN force	–	bond lifetime	0.8 s
